Literature values, collected from citations in different studies.
Lines come from different studies, so protocols differ.
Chain of UniProt Q8TD08 (whole entry, looked up): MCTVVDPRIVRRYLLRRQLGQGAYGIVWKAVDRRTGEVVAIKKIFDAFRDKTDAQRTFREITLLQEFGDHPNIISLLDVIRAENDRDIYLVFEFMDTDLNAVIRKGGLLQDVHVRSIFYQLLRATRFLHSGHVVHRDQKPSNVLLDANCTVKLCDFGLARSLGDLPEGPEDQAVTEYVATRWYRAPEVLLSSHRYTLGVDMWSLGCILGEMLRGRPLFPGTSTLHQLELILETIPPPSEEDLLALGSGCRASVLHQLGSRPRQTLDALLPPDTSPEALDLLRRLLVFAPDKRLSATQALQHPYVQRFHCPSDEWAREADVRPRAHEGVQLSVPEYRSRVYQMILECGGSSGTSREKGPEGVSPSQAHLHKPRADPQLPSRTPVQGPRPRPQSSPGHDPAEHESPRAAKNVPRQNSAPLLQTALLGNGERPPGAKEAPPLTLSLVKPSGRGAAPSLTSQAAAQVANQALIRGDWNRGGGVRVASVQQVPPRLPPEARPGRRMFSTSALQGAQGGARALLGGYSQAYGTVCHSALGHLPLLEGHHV

Compound	target or system	assay	test system	setting	how to read	endpoint	result
CN1CCC(COc2cnc(-c3cccc(Cn4nc(-c5cccc(C#N)c5)ccc4=O)c3)nc2)CC1			human			fraction absorbed	~85%
Nc1cc(C(F)(F)F)c(-c2nc(N3CCOCC3)nc(N3CCOCC3)n2)cn1	MAPK15 (Homo sapiens, UniProt Q8TD08)	enzyme activity		10 µM	baseline: untreated	remaining activity	100%
Cc1ccc(NC(=O)c2ccc(CN3CCN(C)CC3)cc2)cc1Nc1nc(-c2cccnc2)cs1			human			fraction absorbed	0.8
Cc1nn(C)cc1S(=O)(=O)NC(=O)c1ccc(-n2ccc(OCC(C)(C)C(F)(F)F)n2)nc1N1C[C@@H](C)CC1(C)C			human			gut wall elimination, fraction escaping	1
CCOC(=O)[C@H](CCc1ccccc1)N[C@@H](C)C(=O)N1CCC[C@H]1C(=O)O			human			fraction absorbed	40%
CC(C)(CO)c1cc2cc(NC(=O)C3(c4ccc5c(c4)OC(F)(F)O5)CC3)c(F)cc2n1C[C@@H](O)CO			human			gut wall elimination, fraction escaping	0.95
CC(C)NCC(O)COc1ccc(CC(N)=O)cc1 (stereo not drawn)			human			fraction absorbed	56%
CC(C)(O/N=C(\C(=O)N[C@@H]1C(=O)N2C(C(=O)[O-])=C(C[n+]3ccccc3)CS[C@H]12)c1csc(N)n1)C(=O)O	Klebsiella pneumoniae		clinical isolate RKI-No_138/16			MIC	≤ 2 µg/mL
Cc1cc(C)c(CNC(=O)c2cc(Cl)c3c(c2C)O[C@@](C)([C@H]2CC[C@H](N(C)C)CC2)O3)c(=O)[nH]1			human, plasma			fraction unbound	0.0548
CC(C)c1nc(N(C)S(C)(=O)=O)nc(-c2ccc(F)cc2)c1/C=C/[C@@H](O)C[C@@H](O)CC(=O)O			human			fraction absorbed	50%
C=CC[C@@H]1/C=C(\C)C[C@H](C)C[C@H](OC)[C@H]2O[C@@](O)(C(=O)C(=O)N3CCCC[C@H]3C(=O)O[C@H](/C(C)=C/[C@@H]3CC[C@@H](O)[C@H](OC)C3)[C@H](C)[C@@H](O)CC1=O)[C@H](C)C[C@@H]2OC		item: CYP3A4	human			fraction metabolized	0.33
C[C@@H](O)[C@H]1C(=O)N2C(C(=O)O)=C(SCCN=CN)C[C@H]12			human patients			fraction excreted in urine	43%
COC(=O)[C@H]1[C@H]2C[C@@H]3c4[nH]c5cc(OC)ccc5c4CCN3C[C@H]2C[C@@H](OC(=O)c2cc(OC)c(OC)c(OC)c2)[C@@H]1OC			human			fraction absorbed	50%
CNC(C)C1CCC(N)C(OC2C(N)CC(N)C(OC3OCC(C)(O)C(NC)C3O)C2O)O1 (stereo not drawn)	Acinetobacter baumannii		clinical isolate RKI-No_32/16			MIC	> 8 µg/mL
CO[C@H]1C[C@@H]2CC[C@@H](C)[C@@](O)(O2)C(=O)C(=O)N2CCCC[C@H]2C(=O)O[C@H]([C@H](C)C[C@@H]2CC[C@@H](O)[C@H](OC)C2)CC(=O)[C@H](C)/C=C(\C)[C@@H](O)[C@@H](OC)C(=O)[C@H](C)C[C@H](C)/C=C/C=C/C=C/1C			human			fraction unbound in plasma	0.08

Some of these lines once more:
Compound	target or system	assay	test system	setting	how to read	endpoint	result
COC(=O)[C@H]1[C@H]2C[C@@H]3c4[nH]c5cc(OC)ccc5c4CCN3C[C@H]2C[C@@H](OC(=O)c2cc(OC)c(OC)c(OC)c2)[C@@H]1OC			human			fraction absorbed	50%
CNC(C)C1CCC(N)C(OC2C(N)CC(N)C(OC3OCC(C)(O)C(NC)C3O)C2O)O1 (stereo not drawn)	Acinetobacter baumannii		clinical isolate RKI-No_32/16			MIC	> 8 µg/mL
